# Results of several laboratories.
# Every numbered part comes from another study and shows a few of its results, in no order. Positions count from the first letter of the parent shown.

# Study 1
# Target: RNA binding protein fox-1 homolog 2, RRM domain, GST-SBP tag (RBFOX2, Homo sapiens, UniProt O43251-10, residues 100-194)
# Method: RNA Bind-n-Seq
# Molecule type: RNA
# Medium: in vitro
# Tested at: 365 nM
# Setting: natural RNA segment, single round, ends assumed
# Reference: no-protein control
# Direction: higher = stronger binding
# All sequences stand within: GGGAGUUCUACAGUCCGACGAUC … UGGAAUUCUCGGGUGCCAA
# Construct (chain): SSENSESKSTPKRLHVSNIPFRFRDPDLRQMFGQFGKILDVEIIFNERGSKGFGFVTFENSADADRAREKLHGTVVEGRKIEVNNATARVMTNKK
Sequence,RBNS enrichment (R)
CUCACGUGGACUCCCAGUGCGAAGGGGCCCAUGGGUUGGGCUGCAGGCCUGGCCGUGAGCGGGGGCUGCCUGCACGCUCCCCUAGCCUACUCUUGUGUUUAGGGGAUGGU,1.27
UAAACUAUUUUUGACAUGUUCAUAUUUUUAUAACUUAAGAAAUAAAAUAAAAGCUGCAUUUUCACAAGUUUUCUCAAGUCUUUCUUAAGGUUUUUUUGGUUUUGUAUUUA,1.61
CCCUGUCCCCAACUCCAUUAUUUAUUUUGGAGCUGCCCCGCCUGGGUGGCAGGACCCCUGGGCCCUGGGGCUGUGGAUCCUGGUUCCCCAUUUGGAAAAUCACCACCUCU,0.32
AAGAGUUUAGUAAACGAAGAAUUAAACUGCACUGUUGAUCGGUGCUUUGUGUAAAUACAUCUUUAACAUUUGGGUGGAGAGGGGCCUUAAGAAGGACAGUUCAUUGUAGG,0.653
CUUCUCUGGACUAGAGAGAAGAGGGAGAGGACUGGAAGGGAUCACCAAAUCUCAAAGCAAUGAGAAGCAUUCCUAAAUCCCAAAGUGCCCACAUGGGAAAGAGAUAAAAU,0.248
CAAUACUUAUCUAAAACUAUACAUUUAGAAUGGAGCAGUUUAAUACUAGAUCUCAGAAGUUUUGAAAAAUAGCAAAGAAGACUGGAUUUGGAAAGCAUGGUCUACAAUUG,9.78
AAAAUGGAACUUUAGGCCAACCCCCAGCCUUCUGUUGCUAGGGUUGGUCUCCUACAGACACAGUGAUCAAGCUGGAUGACUCCUGCUCUUUGGUGCUUUCAACUCAUUGG,0.385
AAACAGGUAUAUGGAUUUAUCAAGGAGGGCAUUGGCUGCCCCUGGGGUAUUGCCACGCUGUUGUCUUGCUGCCCAUUCACUCCAUGUGCUGCUGUCCUUCCUUCACUUCA,0.548
GAGCGUCCAACUGUAUAUUUUUUACUUUUAUAGAUUUUAAAACUGAUCCUUUAUAUGUGUUUGGAGCUAUGAUAAGUUUUAUGGCAAGCAGUUGGUAUUGUUAACUUUUU,0.818
GCACCAUGCCAACCAGCCCUGCGCGAAGACAGAGUGAGCCACGCCCGGAUGGCAGGGCAUGUUUCUGUUUUGGUGUCUCACUUUCCUCCCAGCGUGACUUAUUUGGGGAU,1.82
CAGAUGGUAGGAGCUGGAGCAAGGUGGUCCACAGGGGAAUGCCUCUCCUGUGCCCAUUUUAUAAUACCUCGCCAAGCUUGGGUCUUUAGAUGAGCAAGAUUAUGGUUAGU,0.392
UUUUAUGUUUACCAUGUGAGUCCUGCAACACUAAAGAUAUUUUGAAUAUCAGUCAUGAUGGCAAUUUCUGUAUAAAAGAGCCUUAAAUGGAACAUUGUUUUGAGAUCAAA,0.488

# Study 2
# Target: CCND1, cyclin fold, Cln2 fusion (human)
# Method: yeast growth competition, sequencing
# Medium: yeast
# Setting: weak parent motif
# Reference: not given
# Direction: higher = stronger binding
# Starting sequence: GMNC docking peptide (human); KNAKRNLSSEFAN
Substitution,normalised enrichment score
A12D,0.947
N6A,0.132
L7F,-0.116
F11M,0.288
N2Y,0.33
K4Q,0.531
A12L,0.332
S9F,0.936
L7G,0.0785
F11T,0.194
N6T,0.212
E10G,0.365
F11R,-0.048
S8H,0.353
R5A,0.31
N6L,-0.369
L7N,0.0298
A3D,0.179
R5C,0.125
N2D,0.408
A12Y,0.245
A12S,0.4
A3I,0.512
N6K,0.0659
F11D,0.302

# Study 3
# Target: ABI1, truncated, D143A, DHFR fusion (Arabidopsis thaliana)
# Method: DHFR PCA, deep sequencing
# Medium: yeast
# Setting: methotrexate growth selection, single substitutions
# Together with: (+)-ABA 0.39 µM
# Reference: wild-type fitted maximum
# Direction: higher = stronger binding
# Starting sequence: PYL1, truncated, DHFR fusion (Arabidopsis thaliana); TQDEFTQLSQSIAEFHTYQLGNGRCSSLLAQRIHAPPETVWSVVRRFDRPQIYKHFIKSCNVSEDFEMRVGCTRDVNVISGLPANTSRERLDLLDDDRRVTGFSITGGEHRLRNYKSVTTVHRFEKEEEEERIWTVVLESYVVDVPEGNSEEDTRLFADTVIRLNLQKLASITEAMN
Substitution,relative binding score [%]
S9C,30.8
W134E,51.4
R163A,43.5
E64W,6.66
I52Q,35.7
T1P,45.6
V143M,-16.5
R111P,20.7
E151K,32
T173N,6.2
D96F,-13.7
S80P,-1.21
L91F,-0.456
V43P,-4.81
K168V,10.2
D48A,-0.989
Q19G,17.1

# Study 4
# Target: CREB3L3, bZIP domain (human)
# Method: DHFR protein complementation
# Medium: yeast
# Setting: single substitutions, most at no-binding floor
# Reference: wild-type JUN-FOS pair
# Direction: higher = stronger binding
# Starting sequence: JUN, bZIP domain (human); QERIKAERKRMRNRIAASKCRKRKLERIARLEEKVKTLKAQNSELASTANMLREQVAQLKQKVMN; partner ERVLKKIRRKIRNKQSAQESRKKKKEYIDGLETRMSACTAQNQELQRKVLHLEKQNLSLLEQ
Substitution,binding fitness
E32S,-1.51 natural log
L45V,-1.51 natural log
L31W,-1.54 natural log
M51P,-1.5 natural log
Q55A,-1.57 natural log
K39Q,-1.49 natural log
A40E,-1.27 natural log
T48M,-1.6 natural log
E32G,-1.42 natural log
E54M,-1.45 natural log
S43N,-1.44 natural log
E33M,-1.57 natural log
R30Q,-1.51 natural log
R53T,-1.43 natural log
L45E,-1.48 natural log
L45F,-1.48 natural log
A40C,-1.39 natural log
N42Y,-1.39 natural log
Q41M,-1.55 natural log
L52V,-1.4 natural log
A57M,-1.5 natural log
L31I,-1.36 natural log
K39D,-1.53 natural log
A29V,-1.5 natural log

# Study 5
# Target: Centromere-binding protein 1, full length, His-tagged (CBF1, Saccharomyces cerevisiae, UniProt P17106, residues 1-351)
# UniProt P17106, sequence (whole entry, looked up): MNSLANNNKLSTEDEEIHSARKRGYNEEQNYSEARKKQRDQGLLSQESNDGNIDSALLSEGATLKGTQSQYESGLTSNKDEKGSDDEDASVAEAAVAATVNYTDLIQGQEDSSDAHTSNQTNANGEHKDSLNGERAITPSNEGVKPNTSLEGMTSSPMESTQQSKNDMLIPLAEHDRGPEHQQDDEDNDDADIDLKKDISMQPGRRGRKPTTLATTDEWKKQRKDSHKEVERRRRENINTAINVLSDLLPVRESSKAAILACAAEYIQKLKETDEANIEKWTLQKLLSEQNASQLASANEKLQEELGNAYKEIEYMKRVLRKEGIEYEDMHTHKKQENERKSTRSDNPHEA
# Method: competition protein-binding microarray
# Molecule type: double-stranded DNA, one strand shown
# Medium: in vitro
# Tested at: 2 µM
# Setting: whole 60-bp probe, lowest competitor level
# Together with: Pho4 competitor, 0.05 µM
# Direction: higher = stronger binding
# All sequences stand within: … GTCTTGATTCGCTTGACGCTGCTG
Sequence,fluorescence intensity
TGCGCAACAACTTGTAGGGTGGGTGTATGTCTAGAA,70.6 a.u.
AGAAAGCACATTTGTCACGTCTCAGGTATGTAGTTC,104 a.u.
CCAGTAGAGTGGTAAAGCGTGCCTACGGCGGTGTTG,71.8 a.u.
CGAGATTCATACAATGGCGTGCAAACAAAATGATTA,92.2 a.u.
TCGGTGGGTAAGCGTCACAATTTCGTCCACCAGTAC,68.1 a.u.
TCCAATTGTTAGAACGCCAGTCAGTTGTTTTCTTCG,60 a.u.
CTAACGAAGGTTTGCTGAGTGGGTGACAAGCCAAGT,62.2 a.u.
ATGGTTAACAGTAATCTCGTGCTGTCAAACATAAAA,201 a.u.
GACCAGCACCGCCGTCACAATGAGTAATGATACCAT,59.5 a.u.
ATTGCTGCTTGCAGCTGCGTGCAAATTTCCATAATC,81.7 a.u.
GTCTTGTCTCATTGCAGGGTGGGTGTCCCCACTTCA,66.7 a.u.
CTGTTTTTCACCTTCCACGTGGATTTTTTCGCGTTT,1120 a.u.
AACACTCGAGTTACTTCCGTGATGGTTTAATGGTCA,85.5 a.u.
TCAAAGTAGCATTAGCTCATAAGGCTTTCACCCTTG,60.1 a.u.
TATCGGTGGGCATTGTACCTGATCTTGCTAGACAAA,65.1 a.u.
AAATTACTAAGTTTTCACGTGACATACCCCGTATGA,5510 a.u.
CATACCCAACCTTGTCACGTGACTTAAGATATTTGT,28500 a.u.
CAGCCGCTCGTCACCCGCGTGATGCTGTTTCTGGCG,146 a.u.

# Single results of other studies
Substance,target,test,system,conditions,scale,measurement,value
"PhoQ, residues 284 288 289 292 302 303 NLSRDF","PhoP, residues 12 14 15 18 19 YHFSH (Escherichia coli, UniProt P23836)","Sort-seq, refers to: YFP reporter",E. coli,"PhoQ-PhoP variant library, together with: 10 µM Mg2+","reference: high Mg2+ state, higher = stronger signaling",fold induction,3.45

# Some of these lines once more (study 2):
Substitution,normalised enrichment score
A12S,0.4
R5A,0.31
N6T,0.212
L7N,0.0298
E10G,0.365
R5C,0.125
N2D,0.408
A3I,0.512
F11R,-0.048
S8H,0.353
A12D,0.947
L7G,0.0785
A3D,0.179
S9F,0.936
